{"data": "Literature values that unrelated publications cite", "note": "Each line is one published result; not all experiments were run side by side. ± gives the spread as reported."}
{"SMILES": "FC(F)(F)C(F)(F)C(F)(F)C(F)(F)CCI", "tested on": "CYP2D6", "assay": "inhibitor", "setting": "Tox21 screening", "endpoint": "IC50", "result": "inactive"}
{"SMILES": "CP(C)(=O)c1ccc(Nc2nc(C3CCCC3)nc3c2ncn3CCc2cccc(O)c2)cc1", "tested on": "Mo7e", "assay": "cell growth", "endpoint": "GI50", "result": "0.108 µM"}
{"SMILES": "N#CC(=Cc1ccc(O)cc1)C(=O)O", "tested on": "human neutrophils", "assay": "anion exchange, competitive inhibitor", "setting": "together with: Cl-", "endpoint": "Ki", "result": "~9000 µM"}
{"SMILES": "CCCCCOc1ccc(-c2ccc(-c3ccc(C(=O)N[C@H]4C[C@@H](O)[C@@H](O)NC(=O)[C@@H]5[C@@H](O)[C@@H](C)CN5C(=O)[C@H]([C@@H](C)O)NC(=O)[C@H]([C@H](O)[C@@H](O)c5ccc(O)cc5)NC(=O)[C@@H]5C[C@@H](O)CN5C(=O)[C@H]([C@@H](C)O)NC4=O)cc3)cc2)cc1", "system": "human renal impairment moderate", "setting": "50 mg single dose", "endpoint": "AUC(0-inf)", "result": "58700 ± 12300 ng·h/mL"}
{"SMILES": "O=C1[O][Pt]2([NH][C@@H]3CCCC[C@H]3[NH]2)[O]C1=O", "tested on": "NCI60 panel", "setting": "mean over panel", "endpoint": "GI50", "result": "2.8 µM"}
{"SMILES": "C[C@@H]1CC[C@H]2[C@@H](C)C(=O)O[C@@H]3O[C@@]4(C)CC[C@@H]1[C@]32OO4", "tested on": "CCRF-CEM", "assay": "cell viability", "endpoint": "IC50", "result": "36.9 ± 6.9 µM"}
{"SMILES": "O=C1N[C@@H]2CCCC[C@H]2N[C@H]1c1c[nH]c2ncccc12", "tested on": "MRC-5 fibroblasts", "assay": "cytotoxicity", "endpoint": "IC50", "result": "> 100 µM"}
{"SMILES": "N.N.[Cl][Pt][Cl]", "tested on": "HeLa", "endpoint": "IC50", "result": "13.3 ± 3.84 µM"}
{"SMILES": "CCNC/C=C\\CNCCCCNCCCCNC/C=C\\CNCC", "tested on": "human prostate cancer cells", "endpoint": "IC50", "result": "0.14 to 0.5 µM"}
{"SMILES": "Cc1c(C(=O)NN2CCCCC2)nn(-c2ccc(Cl)cc2Cl)c1-c1ccc(N)cc1", "tested on": "CB2 receptor", "assay": "binding", "endpoint": "Ki", "result": "0.958 µM"}
{"SMILES": "[Cu+2].[O-][Cl+3]([O-])([O-])[O-].[O-][Cl+3]([O-])([O-])[O-]", "tested on": "MCF7", "assay": "cell growth", "endpoint": "IC50", "result": "6.4 ± 0.5 µM"}
{"SMILES": "CN1CCN(C2=Nc3cc(Cl)ccc3Nc3ccccc32)CC1", "system": "mouse", "endpoint": "fraction unbound", "result": 0.0113}
{"SMILES": "CCC(=C(c1ccc(O)cc1)c1ccc(O)cc1)[c-]1cccc1.[Fe+2].c1cc[cH-]c1", "tested on": "MCF7", "endpoint": "IC50", "result": "0.7 µM"}
{"SMILES": "CC=CCC(C)C(O)C(C)C(O)CC1OC(=O)C=CC1CC (stereo not shown)", "tested on": "A2780", "assay": "cell growth", "endpoint": "GI50", "result": "0.0296 µM"}
{"SMILES": "O=C([O-])CN1CCN(CC(=O)[O-])CCN(CC(=O)NCC2CCC(C(=O)N[C@@H](Cc3ccc4ccccc4c3)C(=O)NCCCC[C@H](NC(=O)N[C@@H](CCC(=O)O)C(=O)O)C(=O)O)CC2)CCN(CC(=O)[O-])CC1.[177Lu+3] (stereo partly shown)", "tested on": "LNCaP", "assay": "gamma counting", "setting": "3 h", "endpoint": "internalized fraction", "result": "75%"}
{"SMILES": "CC(=O)O[C@H]1C(=O)[C@@]2(C)[C@H]([C@H](OC(=O)c3ccccc3)[C@]3(O)C[C@H](OC(=O)[C@H](O)[C@@H](NC(=O)c4ccccc4)c4ccccc4)C(C)=C1C3(C)C)[C@]1(OC(C)=O)CO[C@@H]1C[C@@H]2O", "tested on": "MCF7/PTX (paclitaxel-resistant)", "assay": "cell viability", "endpoint": "IC50", "result": "2.29 ± 0.125 µM"}
{"SMILES": "CC[C@@H]1C=CC(=O)O[C@@H]1C[C@@H](O)[C@H](C)[C@H](OC)[C@@H](C)C[C@@H]1O[C@H]1C (relative stereo)", "tested on": "A2780 ovarian cancer", "assay": "cell growth", "endpoint": "MIC", "result": "0.54 µM"}
{"SMILES": "CCNC(=O)c1nn(-c2ccc(Cl)cc2Cl)c(-c2ccc(Cl)cc2)c1C", "tested on": "CB1 receptor", "assay": "binding", "endpoint": "Ki", "result": "0.0463 µM"}
{"SMILES": "COc1c(C(=O)/C=C/[c-]2cccc2)c(O)cc2occc12.[Fe+2].c1cc[cH-]c1", "tested on": "MCF7", "endpoint": "IC50", "result": "17.2 µM"}
{"note": "Excerpt of the above:"}
{"SMILES": "CCC(=C(c1ccc(O)cc1)c1ccc(O)cc1)[c-]1cccc1.[Fe+2].c1cc[cH-]c1", "tested on": "MCF7", "endpoint": "IC50", "result": "0.7 µM"}
{"SMILES": "[Cu+2].[O-][Cl+3]([O-])([O-])[O-].[O-][Cl+3]([O-])([O-])[O-]", "tested on": "MCF7", "assay": "cell growth", "endpoint": "IC50", "result": "6.4 ± 0.5 µM"}
{"SMILES": "CP(C)(=O)c1ccc(Nc2nc(C3CCCC3)nc3c2ncn3CCc2cccc(O)c2)cc1", "tested on": "Mo7e", "assay": "cell growth", "endpoint": "GI50", "result": "0.108 µM"}
